Assay results from different studies.
Numbers after ± are the reported error.
Organism: Trypanosoma brucei brucei

Compound	assay	test system	conditions	how to read	endpoint	result
Cc1ccc(/C=N/N=C/c2ccc([N+](=O)[O-])s2)cc1	parasite growth, CellTiter-Glo	GUTat3.1 bloodstream form	72 h		IC50	2090 ± 1210 nM
CC(=O)N[C@@H]1[C@@H](OC(C)=O)[C@H](OC(C)=O)[C@@H](COC(C)=O)O[C@H]1[Se]C(C)=O		bloodstream form	5 µM, 24 h, 1 % DMSO		viability	96.4 ± 13.4%
O=C(Nc1ccc2c(c1)CN(c1ccc(F)c(F)c1)C2=O)N1CCN(c2ccc(F)cc2)CC1	parasite growth, resazurin	Squib 427	3 d		IC50	> 64000 nM
COc1ccc(/C=N/N=C/c2ccc([N+](=O)[O-])o2)cc1	parasite growth, CellTiter-Glo	GUTat3.1 bloodstream form	72 h		IC50	2680 ± 1370 nM
CCOC(=O)C(NC(=O)CN1C(=O)N/C(=C\c2ccc3c(c2)OCO3)C1=O)C(C)C (centres unmarked)	cell viability	GUTat3.1	72 h		IC50	> 66000 nM
O=[N+]([O-])c1ccc(/C=N/N=C/c2ccc(Br)cc2)o1	parasite growth, CellTiter-Glo	GUTat3.1 bloodstream form	72 h		IC50	760 ± 350 nM
CC(=O)OC[C@H]1O[C@@H]([Se][C@@H]2O[C@H](COC(C)=O)[C@@H](OC(C)=O)[C@H](OC(C)=O)[C@H]2OC(C)=O)[C@H](OC(C)=O)[C@@H](OC(C)=O)[C@@H]1OC(C)=O	viability	bloodstream form	24 h		EC50	3640 ± 110 nM
Nc1ncnc2c1c(F)cn2[C@@H]1O[C@H](CO)C[C@H]1O	parasite growth, resazurin	Squib 427	72 h		EC50	2 ± 1 nM
O=C(Nc1ccc2c(c1)CN(c1ccc(Br)cc1)C2=O)N1CCN(c2ccc(F)cc2)CC1		Squib 427, mouse, infected	oral, 50 mg/kg twice daily, day 4		parasitaemia	8.9 log10
CCOC(=O)C(C)NC(=O)CN1C(=O)N/C(=C\c2ccc(C)cc2)C1=O (centres unmarked)	cell viability	GUTat3.1	72 h		IC50	> 57000 nM
O=[N+]([O-])c1ccc(/C=N/N=C/c2ccc([N+](=O)[O-])o2)cc1	parasite growth, CellTiter-Glo	GUTat3.1 bloodstream form	72 h		IC50	1290 ± 380 nM
Nc1ncnc2c1c(-c1ccccn1)cn2[C@@H]1O[C@H](CO)[C@@H](O)[C@H]1O	parasite growth, resazurin	Squib 427	72 h		EC50	310 ± 60 nM
CC(=O)N[C@@H]1[C@@H](OC(C)=O)[C@H](OC(C)=O)[C@@H](COC(C)=O)O[C@H]1[Se]c1ccc([N+](=O)[O-])cn1		bloodstream form	5 µM, 24 h, 1 % DMSO		viability	93.9 ± 22.6%
O=C(Nc1ccc2c(c1)CN(c1ccc(Cl)cc1)C2=O)N1CC[C@H](F)C1	cell growth, resazurin	Squib 427	concentration not given, 3 days		growth inhibition	inactive
CC(=O)OC[C@H]1O[C@@H]([Se]c2ccccc2)[C@H](OC(C)=O)[C@@H](OC(C)=O)[C@@H]1OC(C)=O		bloodstream form	5 µM, 24 h, 1 % DMSO		viability	96.4 ± 13.4%
O=[N+]([O-])c1ccc(/C=N/N=C/c2ccc(O)cc2)o1	parasite growth, CellTiter-Glo	GUTat3.1 bloodstream form	72 h		IC50	3890 ± 2140 nM
Cc1ccc(N2Cc3cc(NC(=O)N4CCN(c5cccc(C(F)(F)F)c5)CC4)ccc3C2=O)cc1	parasite growth, resazurin	Squib 427	3 d		IC50	2400 nM
CCOC(=O)CNC(=O)CN1C(=O)S/C(=C\c2ccc(C)cc2)C1=O	cell viability	GUTat3.1	72 h		IC50	> 63000 nM

Compound	assay	test system	conditions	how to read	endpoint	result
CO[C@H]1O[C@H](COCc2ccccc2)[C@H]([Se][C@@H]2O[C@H](COC(C)=O)[C@@H](OC(C)=O)[C@H](OC(C)=O)[C@H]2NC(C)=O)[C@H](OC(C)=O)[C@H]1OC(C)=O		bloodstream form	5 µM, 24 h, 1 % DMSO		viability	97.9 ± 22%
CC(=O)OC[C@H]1O[C@@H]([Se][Se][C@@H]2O[C@H](COC(C)=O)[C@@H](OC(C)=O)[C@H](OC(C)=O)[C@H]2OC(C)=O)[C@H](OC(C)=O)[C@@H](OC(C)=O)[C@@H]1OC(C)=O		bloodstream form	EC50, 4 h	relative to: vehicle	glucose consumption reduction	~10%
O=[N+]([O-])c1ccc(/C=N/N=C/c2ccccc2)s1	parasite growth, CellTiter-Glo	GUTat3.1 bloodstream form	72 h		IC50	300 ± 100 nM
Cc1nc(C(=O)N2CCC[C@H]2C(=O)N[C@@H](CCC(=O)O)C(=O)N[C@@H](CC(C)C)C(=O)NC(C)(C)C(=O)N[C@@H](CC(C)C)C(=O)N[C@@H](CC(C)C)C(=O)NC(C)(C)C(=O)NC(C)(C)C(=O)NCCC(=O)NC2(CN(C)C)CCC2)co1	TMRE	bloodstream form	concentration not given	relative to: untreated	mitochondrial membrane potential	no effect
Nc1ncnc2c1c(I)cn2[C@@H]1O[C@H](CO)C[C@H]1O	parasite growth, resazurin	Squib 427	72 h		EC50	8.5 ± 0.4 nM
Cc1ncnc2c1c(C(F)(F)F)cn2[C@@H]1O[C@H](CO)[C@@H](O)[C@H]1O	resazurin	Squib 427	axenic HMI-9 medium		EC50	580 nM
CC(=O)N[C@@H]1[C@@H](OC(C)=O)[C@H](OC(C)=O)[C@@H](COC(C)=O)O[C@H]1[Se]C(=O)c1ccc(C)cc1		bloodstream form	5 µM, 24 h, 1 % DMSO		viability	90.4 ± 20.2%
CCc1cccc(Nc2c(C(N)=O)cnc3c(C)cc(-c4ccc5cnn(C)c5c4)cc23)c1	cell growth, Alamar blue	bloodstream form, strain 427	48 h		EC50	8700 ± 1800 nM
COc1ccc(/C=N/N=C/c2ccc([N+](=O)[O-])s2)cc1	parasite growth, CellTiter-Glo	GUTat3.1 bloodstream form	72 h		IC50	1050 ± 480 nM
Nc1ncnc2c1c(Cl)cn2[C@@H]1O[C@H](CO)C[C@H]1O	parasite growth, resazurin	Squib 427	72 h		EC50	2.1 ± 0.04 nM
CC(=O)N[C@@H]1[C@@H](OC(C)=O)[C@H](OC(C)=O)[C@@H](COC(C)=O)O[C@H]1[Se]Cc1ccc([N+](=O)[O-])cc1		bloodstream form	5 µM, 24 h, 1 % DMSO		viability	≤ 50%
CC(Nc1c(-c2c(F)cc(OCCCN(C)C)cc2F)c(Cl)nc2ncnn12)C(C)(C)C (centres unmarked)		Lister 427	4 µM, 12 h		viability	~1%
Cc1ccc(N2Cc3cc(NC(=O)N4CCN(c5ccc(F)cc5)CC4)ccc3C2=O)cc1	cell growth, resazurin	Squib 427	3 days		IC50	> 64000 nM
C=Cc1cn([C@@H]2O[C@H](CO)C[C@H]2O)c2ncnc(N)c12	parasite growth, resazurin	Squib 427	72 h		EC50	36 ± 5 nM
CC[Se][C@@H]1O[C@H](COC(C)=O)[C@@H](OC(C)=O)[C@H](OC(C)=O)[C@H]1NC(C)=O		bloodstream form	5 µM, 24 h, 1 % DMSO		viability	98.3 ± 20.7%
Nc1ncnc2c1c(Br)cn2[C@H]1C[C@H](O)[C@@H](CO)O1	parasite growth, resazurin	Squib 427	72 h		EC50	460 ± 80 nM
O=[N+]([O-])c1ccc(/C=N/N=C/c2ccc(OCc3ccccc3)cc2)s1	parasite growth, CellTiter-Glo	GUTat3.1 bloodstream form	72 h		IC50	4880 ± 4200 nM

Repeated from above:
Compound	assay	test system	conditions	how to read	endpoint	result
Nc1ncnc2c1c(F)cn2[C@@H]1O[C@H](CO)C[C@H]1O	parasite growth, resazurin	Squib 427	72 h		EC50	2 ± 1 nM
O=C(Nc1ccc2c(c1)CN(c1ccc(Br)cc1)C2=O)N1CCN(c2ccc(F)cc2)CC1		Squib 427, mouse, infected	oral, 50 mg/kg twice daily, day 4		parasitaemia	8.9 log10
CCOC(=O)C(C)NC(=O)CN1C(=O)N/C(=C\c2ccc(C)cc2)C1=O (centres unmarked)	cell viability	GUTat3.1	72 h		IC50	> 57000 nM
